Experimental data gathered from unrelated publications.
Lines come from different studies, so protocols differ. Several values in a cell are separate wells, animals, samples, runs or records. ± gives the spread as reported.

CCCC[C@@H]1NC(=O)[C@@H](NC(=O)[C@H](CCC(=O)O)NC(=O)CNC(=O)CN2CCN(CC(=O)O)CCN(CC(=O)O)CCN(CC(=O)O)CC2)CCCCNC(=O)C[C@@H](C(N)=O)NC(=O)[C@H](C(C)C)NC(=O)[C@@H]2CCCN2C(=O)[C@H](CCCNC(=N)N)NC(=O)CNC(=O)[C@H](Cc2c[nH]c3ccccc23)NC(=O)[C@H](CCCNC(=N)N)NC(=O)[C@@H](Cc2ccccc2)NC(=O)[C@H](Cc2c[nH]cn2)NC(=O)[C@H](CCC(=O)O)NC1=O [gallium-67 labelled]  tissue uptake (C57 mice, B16/F1 flank melanoma, stomach; intravenous, 2 h, added: blocking peptide 10 µg): 0.06 ± 0.05 %ID/g
N=C(N)NCCC[C@@H]1NC(=O)[C@H](Cc2c[nH]c3ccccc23)NC(=O)[C@@H](CC2CCCCC2)NC(=O)[C@@H]2CCCN2C(=O)[C@@H](NC(=O)CCc2ccccc2)CCCNC1=O  apparent central volume (V1/F) (C57BL/6J mice, spinal cord; subcutaneous, 1 mg/kg, two-compartment model): 0.05 µg/(ng/g)
Cc1ccc(OCC(=O)O)cc1  Tmax (Sprague-Dawley rat Crl:CD(SD), male, plasma; oral, 100 mg/kg/day of parent drug, day 90, 90-day repeated dosing): 3 h
CCn1cc(-c2cc(Cn3ccnc3)cc3c2CCN([C@H](c2cc(OC)ccn2)C2CC2)C3=O)c(C(F)(F)F)n1  whole blood protein binding (mouse whole blood; 1 µM, 4 h, pH 7.4): 99.8 ± 0.1%
CCC(CC)[C@H](NC(C)=O)[C@@H]1[C@H](O)[C@@H](C(=O)N[C@H](C(=O)O)[C@@H](C)CC)C[C@H]1NC(=N)N  t1/2 (rat plasma; 37 °C): 5.3 ± 0.8 h
CN1C(=O)[C@@H](Cc2ccc(O)c(I)c2)NC(=O)CNC(=O)[C@H](Cc2ccc3ccccc3c2)NC(=O)[C@H](CCCNC(=N)N)NC(=O)[C@H]1CCCNC(=O)c1ccc(CNC(=O)CN2CCN(CC(=O)O)CCN(CC(=O)O)CCN(CC(=O)O)CC2)cc1 [lutetium-177 labelled]  total absorbed dose (2; human, extrapolated from mouse, kidneys): 0.058 mGy/MBq
CCC/C(=C\C1=C(OC)C(=O)c2ccccc2C1=O)C(=O)NOC  t1/2 (mouse plasma; 1 µM, 37 °C): 0.283 h
O=C([O-])CN1CCN(CC(=O)[O-])CCN(CC(=O)NC[C@H]2CC[C@H](C(=O)N[C@H](Cc3cnc4ccccc4c3)C(=O)NCCCC[C@H](NC(=O)N[C@@H](CCC(=O)O)C(=O)O)C(=O)O)CC2)CCN(CC(=O)[O-])CC1.[64Cu+2]  absorbed dose (PET/CT dosimetry OLINDA/EXM; healthy volunteers, testes; up to 24 h post-injection): 0.0172 mGy/MBq
Oc1ccc2ccccc2c1/N=N/c1ccc(/N=N/c2ccccc2)cc1  measured concentration (rat whole blood QC samples; 16.0 µg/L, 2 h, room temperature, short-term stability): 16.1 µg/L
CCC(=O)N(C)c1ccc(Cl)c(Cl)c1  concentration (mouse, brain; subcutaneous, 40 mg/kg, 1 h): 2000 nM
[11CH3]c1ccc2nc(C3CCC3)n(-c3ccc4[nH]ncc4c3)c2n1  absorbed dose (extrapolated from mouse; human female, heart wall): 5.4 µSv/MBq
CN(C)C(CNC(=O)Nc1cc(C(F)(F)F)ccc1N1CCOCC1)c1ccncc1 (stereo not shown)  tissue/plasma ratio (mouse, C57BL/6J; intraperitoneal, 5 mg/kg, 2 h; reference: brain over plasma): 0.26 ± 0.07
Cc1nc(C)c(C=[N+]([O-])C(C)(C)C)nc1C  Cmin (healthy human, both sexes, serum; oral, 1200 mg twice daily, 7 days): 524 ng/mL
CC(=O)N1CCC(NC(=O)Nc2ccc(OC(F)(F)F)cc2)CC1  time to full blood elimination (male C57BL/6J mice, blood; 1 mg/kg): ≤ 168 h
COc1ccc(NC(=O)[C@H](CCCCN)NC(=O)c2cc(NC(=O)[C@H](CCCCN)NC(=O)c3cc(NC(=O)[C@H](CCCCN)NC(=O)c4cc(NC(C)=O)ccc4OC)ccc3OC)ccc2OC)cc1C(N)=O  enthalpy of dissociation (ITC heats of dilution; TBS; pH 7.4, 25 °C, hexamer to monomer): 15.6 kcal/mol
Cc1[nH]nc2c1N=C(c1ccccc1Cl)c1cnc(N3CCOCC3)cc1N2  urinary excretion (human male, urine; oral, 10 mg, 0-72 h; reference: dose): 0.28%
CC1C(c2c(F)ccc(F)c2F)CC(N[14C](=O)c2cnc3c(c2)CC2(C3)C(=O)Nc3ncccc32)C(=O)N1CC(F)(F)F (stereo not shown)  urinary excretion (item: total radioactivity; human, urine; through last collection; reference: dose): ~8% and 7.86% and 8%
CC(C)C[C@H](NC(=O)[C@H](CC(C)C)NC(=O)[C@@H](Cc1c[nH]c2ccccc12)NC(=O)[C@@H](NC(=O)[C@@H](Cc1csc2ccccc12)NC(=O)[C@@H](N)CCCCN)[C@@H](c1ccccc1)c1c[nH]c2ccccc12)C(N)=O  HPLC retention (RP-HPLC Kinetex Biphenyl; acetonitrile/water TFA gradient): 51 %B
CC(C)(O)c1ncc([S@](N)(=O)=NC(=O)Nc2c3c(cc4c2CCC4)CCC3)s1  Cmax (healthy human, fasted; oral, 100 mg single dose, capsule formulation): 4820 ng/mL
Cn1c(=O)oc2ccc(-c3ccc(CC(C#N)NC(=O)C4CNCCCO4)c(F)c3)cc21 (stereo not shown)  bilirubin increased incidence (human; oral, 40 mg once daily, TEAE, multiple ascending dose): 11.1%
CC(=O)N[C@H](CC(=O)O)C(=O)N[C@H](Cc1c[nH]c2ccccc12)C(=O)N[C@H](Cc1ccccc1)C(=O)N[C@H](CCCCN)C(=O)N[C@H](C)C(=O)N[C@H](Cc1ccccc1)C(=O)N[C@H](Cc1ccc(O)cc1)C(=O)N[C@H](CC(=O)O)C(=O)N[C@H](CCCCN)C(=O)N[C@@H](C(=O)N[C@H](C)C(=O)N[C@H](CCC(=O)O)C(=O)N[C@H](CCCCN)C(=O)N[C@H](Cc1ccccc1)C(=O)N[C@H](CCCCN)C(=O)N[C@H](CCC(=O)O)C(=O)N[C@H](C)C(=O)N[C@H](Cc1ccccc1)C(N)=O)C(C)C  Cmax (statin-treated high-risk CHD men, plasma; oral, 500 mg daily, day 1, 0-2 h, mean, undetectable set to 0): 23.4 ng/mL
COc1cc(NC(C)=O)c2c(c1O)-c1c(OC)c(OC)cc3c1C(C2)N(C)CC3 (stereo not shown)  remaining compound (rat heart homogenate; 0.5 µg/mL, 24 h, room temperature, post-preparative storage): 100 ± 2.8%
OC[C@H]1O[C@@H](OCCOCCOCC[N+]2(C[B-](F)(F)F)CCOCC2)[C@H](O)[C@@H](O)[C@@H]1O  half-life (chemical stability, NMR; aqueous buffer; 2 mg/mL, pH 7.5): 120 h
COc1cc2c(cc1OC)CN(CCCCn1ccc3cc(OCC[18F])ccc31)C2  uptake (ICR mice, male, stomach; intravenous, 15 min): 2.87 ± 0.32 %ID/organ
O=C(NCCCN(CCCCN(CCCNC(=O)c1cccc(=O)n1[O-])C(=O)c1cccc(=O)n1[O-])C(=O)c1cccc(=O)n1[O-])c1cccc(=O)n1[O-].[89Zr+4]  intact complex (radio-TLC; PBS; 1 h, pH 7.4, 37 °C, added: Ni^2+ 10-fold excess): 98.4 ± 2.3%

A few entries again:
[11CH3]c1ccc2nc(C3CCC3)n(-c3ccc4[nH]ncc4c3)c2n1  absorbed dose (extrapolated from mouse; human female, heart wall): 5.4 µSv/MBq
CC(C)(O)c1ncc([S@](N)(=O)=NC(=O)Nc2c3c(cc4c2CCC4)CCC3)s1  Cmax (healthy human, fasted; oral, 100 mg single dose, capsule formulation): 4820 ng/mL
CC1C(c2c(F)ccc(F)c2F)CC(N[14C](=O)c2cnc3c(c2)CC2(C3)C(=O)Nc3ncccc32)C(=O)N1CC(F)(F)F (stereo not shown)  urinary excretion (item: total radioactivity; human, urine; through last collection; reference: dose): ~8% and 7.86% and 8%
